Measured values gathered from unrelated publications.
Numbered parts are unrelated; each lists some results of a single study. Positions count from the first letter of the parent shown.

Sample 1
Target: Histone acetyltransferase KAT6A, both winged helices, GST fusion (KAT6A, Homo sapiens, UniProt Q92794, residues 1-181)
Method: protein binding microarray
Form: double-stranded DNA, one strand shown
Medium: in vitro
Tested at: not given
Setting: 8-mer, flanks averaged, mean of 2 arrays, mostly near background
Baseline: not given
Direction: higher = stronger binding
Measurement: E-score
Construct (chain): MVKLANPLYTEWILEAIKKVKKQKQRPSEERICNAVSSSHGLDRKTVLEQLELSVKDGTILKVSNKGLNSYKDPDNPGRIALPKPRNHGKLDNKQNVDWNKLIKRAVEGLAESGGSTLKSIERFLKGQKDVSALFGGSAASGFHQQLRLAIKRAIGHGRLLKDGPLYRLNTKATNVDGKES
CACCACTC: -0.132
AAGCAATG: -0.126
CGGGATAC: 0.211
AGCTCTAT: -0.108
AAGCTAGT: -0.156
CAAAAAGA: -0.121
CAGGGTGG: -0.176
GCTGAAGA: -0.0877
GCGTCAGA: 0.0282
TCGGCAGA: 0.111
GCAAACAA: -0.0376
CAACGTTC: 0.0834
CCGAGGAA: 0.0101
AATGTAAT: -0.0481
ACTCAATC: -0.162

Sample 2
Target: ABI1, truncated, D143A, DHFR fusion (Arabidopsis thaliana)
Method: DHFR PCA, deep sequencing
Medium: yeast
Setting: methotrexate growth selection, single substitutions
Together with: (+)-ABA 17 µM
Baseline: wild-type fitted maximum
Direction: higher = stronger binding
Measurement: relative binding score
Parent: PYL1, truncated, DHFR fusion (Arabidopsis thaliana); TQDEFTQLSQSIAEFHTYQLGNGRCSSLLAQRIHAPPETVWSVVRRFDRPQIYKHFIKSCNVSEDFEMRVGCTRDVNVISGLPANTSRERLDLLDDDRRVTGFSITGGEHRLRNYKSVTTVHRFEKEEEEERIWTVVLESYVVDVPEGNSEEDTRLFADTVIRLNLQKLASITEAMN; partner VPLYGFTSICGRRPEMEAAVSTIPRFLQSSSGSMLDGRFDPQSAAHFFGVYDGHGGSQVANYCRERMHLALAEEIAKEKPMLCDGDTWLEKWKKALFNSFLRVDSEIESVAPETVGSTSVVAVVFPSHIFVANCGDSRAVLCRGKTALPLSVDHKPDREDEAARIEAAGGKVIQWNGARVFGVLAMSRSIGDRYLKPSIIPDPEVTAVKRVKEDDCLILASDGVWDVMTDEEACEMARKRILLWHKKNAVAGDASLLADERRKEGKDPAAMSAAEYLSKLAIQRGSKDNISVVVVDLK
L164M: 84.7%
D95S: 40.3%
A84W: 63.6%
T120N: 9.52%
P37M: 41.1%
T73M: 87.6%
R163K: 89.2%
L29C: 67.9%
R111N: 41.1%
T160I: 42.5%
K54C: -20.3%
G23Q: 68%
G81H: 6.75%
E174H: 46%
E67H: 77.1%
F5Q: 76.6%
T119D: -9.85%

Sample 3
Target: CCNB2, cyclin fold, Cln2 fusion (human)
Method: yeast growth competition, sequencing
Medium: yeast
Setting: weak parent motif
Baseline: not given
Direction: higher = stronger binding
Measurement: normalised enrichment score
Parent: PKN2 docking peptide (human); VSAVQKLDFSDTM; partner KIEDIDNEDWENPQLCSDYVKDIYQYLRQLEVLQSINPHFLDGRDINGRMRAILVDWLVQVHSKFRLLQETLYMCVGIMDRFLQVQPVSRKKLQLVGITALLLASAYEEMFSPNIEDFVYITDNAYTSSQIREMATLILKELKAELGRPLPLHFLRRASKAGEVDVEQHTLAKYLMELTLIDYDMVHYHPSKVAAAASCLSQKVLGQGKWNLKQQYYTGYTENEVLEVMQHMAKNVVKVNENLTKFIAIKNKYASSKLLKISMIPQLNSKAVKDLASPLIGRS
T12S: 0.396
S10D: 0.0439
S2R: 0.1
L7K: -0.497
M13N: 0.183
V4A: -0.226
S10E: 0.708
S10K: -0.425
V1C: 0.335
V1I: 0.0313
F9M: -0.409
V4D: -0.541
K6S: 0.137
A3F: -0.063
D8S: -0.00801
K6L: -0.535
M13T: -0.0665
K6E: -0.381

Single results of other studies
PhoQ, residues 284 288 289 292 302 303 AGHLVA
fold induction (PhoP, residues 12 14 15 18 19 NYFTV (Escherichia coli, UniProt P23836); Sort-seq, refers to: YFP reporter; E. coli; PhoQ-PhoP variant library, together with: 10 µM Mg2+; baseline: high Mg2+ state, higher = stronger signaling): 1.09

For quick reference, copied from above (sample 2):
R111N: 41.1%
L29C: 67.9%
T120N: 9.52%
A84W: 63.6%
L164M: 84.7%
D95S: 40.3%
G23Q: 68%
